Results from different studies.
MET Y1235D: Hepatocyte growth factor receptor (MET, Homo sapiens, UniProt P08581, Y1235D)
MET: Hepatocyte growth factor receptor (MET, Homo sapiens, UniProt P08581)
MET M1250T: Hepatocyte growth factor receptor (MET, Homo sapiens, UniProt P08581, M1250T)

Structure (SMILES)	target	test	conditions	how to read	remaining binding
CNC(=O)C1CCN(c2cc(C)c(F)cc2NC(=O)c2ccc(-c3cc(O)ccc3C)c(C)c2)CC1	MET Y1235D	binding, competition with immobilised ligand	1 µM		97%
CN1CCN(Cc2ccc(NC(=O)c3cccc(C#Cc4cnc(N)c5ncccc45)c3)cc2C(F)(F)F)CC1	MET	cell-free assay, competition with immobilised ligand	0.5 µM		79%
CNS(=O)(=O)Nc1nccc(Cc2c(C)c3ccc(Oc4ncccc4F)cc3oc2=O)c1F	MET	cell-free assay, competition with immobilised ligand	10 µM		69%
Cc1cnc2nc1Nc1cccc(c1)COC/C=C/COCc1cc(ccc1OCCN1CCOCC1)N2	MET Y1235D	binding	0.1 µM		100%
C=CC(=O)N1CCCC(n2c(=O)c3ncccc3n(Cc3ccc(Oc4ccccc4)cc3)c2=O)C1 (stereo not shown)	MET Y1235D	cell-free assay, competition with immobilised ligand	1 µM		82%
Nc1ncc2c(n1)-c1c([nH]c3ccc(C4=CCOCC4)cc13)CCC2	MET M1250T	binding, competition with immobilised ligand	1 µM		100%
COc1c(Cl)cccc1Nc1c(-c2ccncc2C#C[C@@]2(C)CCCN2C(=O)/C=C/CN(C)C)[nH]c2c1C(=O)NCC2	MET Y1235D	cell-free assay, competition with immobilised ligand	3 µM		85%
C=CC(=O)N1CCc2ccc(-n3c(=O)ccc4cnc5ccc(-c6cnn(C)c6)cc5c43)cc21	MET M1250T	KINOMEscan	1 µM	relative to: DMSO control	92%
CC(C)=CC1OC(C)(C)C2C=C3C(=O)C(Cl)=CC(O)C3C3C(O)C4OC4C(=O)C132 (stereo not shown)	MET Y1235D	cell-free assay, competition with immobilised ligand	10 µM		90%
COc1cc(Nc2nccc(-c3cnn4nc(OC)ccc34)n2)cc(C(F)(F)F)c1	MET	binding, competition with immobilised ligand	1 µM		100%
CNC1C[S+]2CC[S+]3CC[S+](C1)[Ru-4]321([N]=C=S)[n]2c3ccc(OC)cc3c3c4c(c5cc(F)c[n+]1c5c32)C(=O)NC4=O (stereo not shown)	MET	KinomeScan	0.1 µM	relative to: untreated	100%
CCN1CCN(Cc2ccc(C(=O)Nc3ccc(C)c(NCc4cnc5[nH]ccc5c4OC)c3)cc2C(F)(F)F)CC1	MET Y1235D	binding, competition with immobilised ligand	1 µM		100%
Cc1ccc(-c2c(/C=C(\C#N)C(=O)NC(C)C)n(CCCO)c3ncnc(N)c23)cc1	MET M1250T	cell-free assay, competition with immobilised ligand	1 µM		82%

A few entries again:
Structure (SMILES)	target	test	conditions	how to read	remaining binding
Cc1ccc(-c2c(/C=C(\C#N)C(=O)NC(C)C)n(CCCO)c3ncnc(N)c23)cc1	MET M1250T	cell-free assay, competition with immobilised ligand	1 µM		82%
CCN1CCN(Cc2ccc(C(=O)Nc3ccc(C)c(NCc4cnc5[nH]ccc5c4OC)c3)cc2C(F)(F)F)CC1	MET Y1235D	binding, competition with immobilised ligand	1 µM		100%
